Measurements from different studies.
Lines come from different studies, so protocols differ. “And” joins repeats or separate records; there may be more than shown. ± marks the error that the study gave.

| Structure (SMILES) | assay | system | setting | how to read | measurement | value |
| --- | --- | --- | --- | --- | --- | --- |
| CC(CCC(=O)NCc1ccc(C(=O)NO)cc1)C1CCC2C3C(O)CC4CC(O)CCC4(C)C3CCC12C (stereo not drawn) | item: CA | PCK rat (Pkhd1 mutant), portal blood | oral gavage, dose not given, 5 months | relative to: total bile acids | relative abundance | 43.4% |
| COc1cnc2cccc(N3CCc4c(cc(Cn5ccnc5)cc4-c4cn(C)nc4C(F)(F)F)C3=O)c2c1 |  | BALB/c nude mice, MV4-11 xenograft | intraperitoneal, 50 mg/kg, day 14 |  | tumour volume | 169 mm3 and 154 mm3 and 160 mm3 and 186 mm3 and 180 mm3 and 231 mm3 and 181 mm3 and 153 mm3 |
| COC1CN([C@H]2CC[C@H]([C@@]3(C)Oc4c(Cl)cc(C(=O)NCc5c(SC)cc(C)[nH]c5=O)c(C)c4O3)CC2)C1 | RNA-seq, item: PDZD3 | human, whole blood | dose not given, 24 h | relative to: pretreatment baseline | log2 fold change | 2.28 |
| CC[C@H]1CN([C@@H](CC)c2ccc(C(F)(F)F)cc2)[C@H](CC)CN1c1nc(=O)n(C)c2ccc(C#N)nc12 | T cell priming, item: IL-2 | BMDC, Mus musculus | 96 h, OVA cross-presentation, added: OT-1 CD8+ T cells, OVA |  | EC50 | 22 nM |
| COc1cc(O)ccc1CCC(c1ccc(O)cc1)c1cc2c(c(C)c1O)OC(c1ccc(O)cc1)CC2 (mixture of isomers) | item: LTB4 | human whole blood | 30 µM, added: Escherichia coli |  | amount | 560 ± 366 pg/mL blood |
| O=S(=O)(NCc1ccncc1)c1ccc(C2CCCCC2)cc1 | bulk RNA sequencing | CK-p25 mice, female, microglia | intraperitoneal, 0.3 mg/kg daily for 2 weeks, 336 h |  | downregulated genes number | 746 genes |
| COc1cc(N2CCN(C(=O)C3CCCN3)CC2)ccc1Nc1ncc(Cl)c(Nc2ccccc2P(C)(C)=O)n1 (stereo not drawn) |  | nude mice, NCI-H3122 xenograft | intraperitoneal, 10 mg/kg every other day, day 16 |  | tumour volume | 76.6 mm3 and 163 mm3 and 160 mm3 and 133 mm3 and 131 mm3 |
| O=[N+]([O-])[O-].O=c1c(C=NN=C([S-])Nc2ccccc2)coc2ccccc12.[Cu+2].c1cnc2c(c1)ccc1cccnc12 | DNA cleavage | supercoiled pUC19 DNA | 100 µM, 4 h, 37 °C, no reducing agent, added: DNA 40 µM |  | nicked circular DNA form | 19% |
| COc1ccc(NC(=O)c2ccc3[nH]c(-c4ccc(N(C)C)cc4)nc3c2)cn1 |  | Lewis lung carcinoma, mice, syngeneic graft, subcutaneous | intraperitoneal, 25 mg/kg daily, day 3 |  | tumour volume | 150 mm3 and 306 mm3 and 131 mm3 and 352 mm3 |
| CN1CCC[C@]1(C)/C=C/S(=O)(=O)NC(=O)Nc1c2c(cc3c1CCC3)CCC2 |  | human, whole blood ex vivo | 250 mg single dose, 6 h, single ascending dose, added: LPS and ATP |  | IL-18 inhibition | 104% |
| C=CC(=O)N1CC2C(=O)N(CCN(C)C)c3c(c4cc(Cl)c(-c5c(O)cccc5F)nc4n(-c4c(C)ccnc4C(C)C)c3=O)N2CC1C (stereo not drawn) |  | NCI-H358, mouse xenograft | oral, 10 mg/kg once daily |  | tumour growth inhibition | 103% |
| N[C@@H](CNC(=O)N[C@@H](CS)C(=O)NCC(=O)O)C(=O)O | Western blot | mouse C57BL/6, Aβ i.c.v. model, brain | intranasal, dose not given |  | RAGE activation | decreased |
| COc1ccc(C(=O)CCc2cc(C(CCc3ccc(O)cc3OC)c3ccc(O)cc3)c(O)cc2OC)cc1 (racemic) |  | human blood | 1 µM, added: A23187 |  | 4-HDHA level | 29 ± 4 pg/mL |
| CCCCCCCCN(CCC(=O)Nc1ccccc1)C(=O)c1ccccn1 | immunofluorescence | Lmna G609G/G609G progeroid mice, aortic arch | dose not given | relative to: vehicle | loss of vascular smooth muscle cells | 25% |
| COc1cc2c(NC3CCN(C(C)C)CC3)cc(N3CCOCC3)nc2cc1OCCCN1CCCC1 | TMT proteomics, item: YWHAZ | 5xFAD mice, hippocampus | dose not given | relative to: wild-type mice | log2 fold change | -0.00601 |
| CC(=O)[O-].O.[Cu+2].[O-]c1ccc(Br)cc1C=NCCN1CCOCC1 | hydroxyl radical scavenging |  | 200 µM |  | inhibition | 47.2% |
| COc1ccc2c(c1)c(CC(=O)[O-])c(C)n2C(=O)c1ccc(Cl)cc1.COc1ccc2c(c1)c(CC(=O)[O-])c(C)n2C(=O)c1ccc(Cl)cc1.[Co+2].c1c[nH]cn1.c1c[nH]cn1 | ABTS | DMSO | concentration not given |  | ABTS radical cation scavenging | 95.53 ± 0.62% |
| CN1CCCNC(=O)c2cccc(c2)C(=O)NCCCN(C)CCCNc2cccc3c2C(=O)c2cccc(c2C3=O)NCCC1 |  | KSN/Slc nude mice, SAS xenograft | dose not given, day 8, 192 h |  | tumour volume | 233 mm3 and 281 mm3 and 250 mm3 and 136 mm3 |
| COc1ccc2cc3[n+](cc2c1OCCCOC(=O)c1cscn1)CCc1cc2c(cc1-3)OCO2 |  | hyperlipidemic hamster | oral gavage, 24 mg/kg daily, 3 weeks |  | plasma LDL-C reduction | 54.6% |
| CC(C)c1ccc(N(C)c2ccc3c(c2)OCC[C@H]3CNc2cnccc2C(=O)O)cc1 |  | mouse, OCI-LY19 xenograft | 5 mg/kg QD, day 21 |  | tumour growth inhibition | 55% |
| CC[C@H](C)[C@H](NC(=O)[C@@H](NC(=O)c1ccnc(Cl)c1Cl)C(C)(C)C)C(=O)N[C@H](C(=O)N[C@H](C(=O)N[C@H](C(=O)N[C@@H](CCC(N)=O)C(=O)N[C@@H](Cc1c[nH]cn1)C(=O)N[C@H](CC(C)C)C(=O)N[C@@H](CO)C(=O)NCCOCCOCC(=O)N[C@@H](CCCCNC(=O)CC[C@@H]1NC(=O)[C@@H](CCCNC(=N)N)NC(=O)[C@H](CCCNC(=N)N)NC(=O)[C@@H](CCCNC(=N)N)NC(=O)[C@H](CCCNC(=N)N)NC(=O)[C@H](Cc2ccc3ccccc3c2)NC(=O)[C@@H](Cc2ccccc2)NC1=O)C(N)=O)[C@@H](C)O)[C@@H](C)CC)C(C)(C)O |  | mouse, acute lung injury, LPS-induced | intranasal, 3 mg/kg, 6 h, added: LPS 4 mg/kg intranasal | relative to: vehicle | BALF protein level | decreased |

For quick reference, copied from above:
| Structure (SMILES) | assay | system | setting | how to read | measurement | value |
| --- | --- | --- | --- | --- | --- | --- |
| O=[N+]([O-])[O-].O=c1c(C=NN=C([S-])Nc2ccccc2)coc2ccccc12.[Cu+2].c1cnc2c(c1)ccc1cccnc12 | DNA cleavage | supercoiled pUC19 DNA | 100 µM, 4 h, 37 °C, no reducing agent, added: DNA 40 µM |  | nicked circular DNA form | 19% |
| CC(=O)[O-].O.[Cu+2].[O-]c1ccc(Br)cc1C=NCCN1CCOCC1 | hydroxyl radical scavenging |  | 200 µM |  | inhibition | 47.2% |
